# Assay results pooled from the literature.
# Numbered parts are unrelated; each lists some results of a single study. Values joined by “and” are separate records of one study, mostly repeats; a detail may differ. ± gives the spread as reported.
# Chain of UniProt Q12809 (whole entry, looked up): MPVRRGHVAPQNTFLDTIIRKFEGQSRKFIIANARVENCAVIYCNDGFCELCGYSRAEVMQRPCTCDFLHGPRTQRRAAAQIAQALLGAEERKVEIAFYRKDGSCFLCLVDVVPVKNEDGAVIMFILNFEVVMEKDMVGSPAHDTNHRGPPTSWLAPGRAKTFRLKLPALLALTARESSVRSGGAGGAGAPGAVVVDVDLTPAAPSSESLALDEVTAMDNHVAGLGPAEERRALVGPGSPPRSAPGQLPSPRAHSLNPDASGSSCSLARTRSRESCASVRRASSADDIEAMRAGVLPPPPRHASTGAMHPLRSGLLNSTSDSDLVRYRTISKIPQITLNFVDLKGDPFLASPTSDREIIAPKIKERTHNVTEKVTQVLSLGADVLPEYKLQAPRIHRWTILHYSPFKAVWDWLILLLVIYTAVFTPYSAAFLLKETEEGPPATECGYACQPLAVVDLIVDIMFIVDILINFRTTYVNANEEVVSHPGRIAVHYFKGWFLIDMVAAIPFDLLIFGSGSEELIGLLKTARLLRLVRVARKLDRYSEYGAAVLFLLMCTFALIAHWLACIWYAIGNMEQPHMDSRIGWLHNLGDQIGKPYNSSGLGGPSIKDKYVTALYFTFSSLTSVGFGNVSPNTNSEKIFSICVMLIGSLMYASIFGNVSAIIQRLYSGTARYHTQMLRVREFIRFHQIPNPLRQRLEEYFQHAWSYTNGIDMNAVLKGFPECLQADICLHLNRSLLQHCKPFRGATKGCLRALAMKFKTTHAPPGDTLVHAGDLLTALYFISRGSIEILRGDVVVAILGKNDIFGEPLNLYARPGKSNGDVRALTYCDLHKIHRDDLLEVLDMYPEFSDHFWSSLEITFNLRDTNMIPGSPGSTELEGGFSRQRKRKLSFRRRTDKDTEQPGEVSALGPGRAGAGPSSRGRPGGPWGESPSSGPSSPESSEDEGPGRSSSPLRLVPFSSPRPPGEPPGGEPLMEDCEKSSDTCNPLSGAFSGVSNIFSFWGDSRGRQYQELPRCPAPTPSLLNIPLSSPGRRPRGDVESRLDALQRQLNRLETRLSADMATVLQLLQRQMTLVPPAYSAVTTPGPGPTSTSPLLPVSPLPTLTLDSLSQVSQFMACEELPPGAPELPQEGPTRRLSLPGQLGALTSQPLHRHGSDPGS
# Chain of UniProt Q5XXP4 (whole entry, looked up): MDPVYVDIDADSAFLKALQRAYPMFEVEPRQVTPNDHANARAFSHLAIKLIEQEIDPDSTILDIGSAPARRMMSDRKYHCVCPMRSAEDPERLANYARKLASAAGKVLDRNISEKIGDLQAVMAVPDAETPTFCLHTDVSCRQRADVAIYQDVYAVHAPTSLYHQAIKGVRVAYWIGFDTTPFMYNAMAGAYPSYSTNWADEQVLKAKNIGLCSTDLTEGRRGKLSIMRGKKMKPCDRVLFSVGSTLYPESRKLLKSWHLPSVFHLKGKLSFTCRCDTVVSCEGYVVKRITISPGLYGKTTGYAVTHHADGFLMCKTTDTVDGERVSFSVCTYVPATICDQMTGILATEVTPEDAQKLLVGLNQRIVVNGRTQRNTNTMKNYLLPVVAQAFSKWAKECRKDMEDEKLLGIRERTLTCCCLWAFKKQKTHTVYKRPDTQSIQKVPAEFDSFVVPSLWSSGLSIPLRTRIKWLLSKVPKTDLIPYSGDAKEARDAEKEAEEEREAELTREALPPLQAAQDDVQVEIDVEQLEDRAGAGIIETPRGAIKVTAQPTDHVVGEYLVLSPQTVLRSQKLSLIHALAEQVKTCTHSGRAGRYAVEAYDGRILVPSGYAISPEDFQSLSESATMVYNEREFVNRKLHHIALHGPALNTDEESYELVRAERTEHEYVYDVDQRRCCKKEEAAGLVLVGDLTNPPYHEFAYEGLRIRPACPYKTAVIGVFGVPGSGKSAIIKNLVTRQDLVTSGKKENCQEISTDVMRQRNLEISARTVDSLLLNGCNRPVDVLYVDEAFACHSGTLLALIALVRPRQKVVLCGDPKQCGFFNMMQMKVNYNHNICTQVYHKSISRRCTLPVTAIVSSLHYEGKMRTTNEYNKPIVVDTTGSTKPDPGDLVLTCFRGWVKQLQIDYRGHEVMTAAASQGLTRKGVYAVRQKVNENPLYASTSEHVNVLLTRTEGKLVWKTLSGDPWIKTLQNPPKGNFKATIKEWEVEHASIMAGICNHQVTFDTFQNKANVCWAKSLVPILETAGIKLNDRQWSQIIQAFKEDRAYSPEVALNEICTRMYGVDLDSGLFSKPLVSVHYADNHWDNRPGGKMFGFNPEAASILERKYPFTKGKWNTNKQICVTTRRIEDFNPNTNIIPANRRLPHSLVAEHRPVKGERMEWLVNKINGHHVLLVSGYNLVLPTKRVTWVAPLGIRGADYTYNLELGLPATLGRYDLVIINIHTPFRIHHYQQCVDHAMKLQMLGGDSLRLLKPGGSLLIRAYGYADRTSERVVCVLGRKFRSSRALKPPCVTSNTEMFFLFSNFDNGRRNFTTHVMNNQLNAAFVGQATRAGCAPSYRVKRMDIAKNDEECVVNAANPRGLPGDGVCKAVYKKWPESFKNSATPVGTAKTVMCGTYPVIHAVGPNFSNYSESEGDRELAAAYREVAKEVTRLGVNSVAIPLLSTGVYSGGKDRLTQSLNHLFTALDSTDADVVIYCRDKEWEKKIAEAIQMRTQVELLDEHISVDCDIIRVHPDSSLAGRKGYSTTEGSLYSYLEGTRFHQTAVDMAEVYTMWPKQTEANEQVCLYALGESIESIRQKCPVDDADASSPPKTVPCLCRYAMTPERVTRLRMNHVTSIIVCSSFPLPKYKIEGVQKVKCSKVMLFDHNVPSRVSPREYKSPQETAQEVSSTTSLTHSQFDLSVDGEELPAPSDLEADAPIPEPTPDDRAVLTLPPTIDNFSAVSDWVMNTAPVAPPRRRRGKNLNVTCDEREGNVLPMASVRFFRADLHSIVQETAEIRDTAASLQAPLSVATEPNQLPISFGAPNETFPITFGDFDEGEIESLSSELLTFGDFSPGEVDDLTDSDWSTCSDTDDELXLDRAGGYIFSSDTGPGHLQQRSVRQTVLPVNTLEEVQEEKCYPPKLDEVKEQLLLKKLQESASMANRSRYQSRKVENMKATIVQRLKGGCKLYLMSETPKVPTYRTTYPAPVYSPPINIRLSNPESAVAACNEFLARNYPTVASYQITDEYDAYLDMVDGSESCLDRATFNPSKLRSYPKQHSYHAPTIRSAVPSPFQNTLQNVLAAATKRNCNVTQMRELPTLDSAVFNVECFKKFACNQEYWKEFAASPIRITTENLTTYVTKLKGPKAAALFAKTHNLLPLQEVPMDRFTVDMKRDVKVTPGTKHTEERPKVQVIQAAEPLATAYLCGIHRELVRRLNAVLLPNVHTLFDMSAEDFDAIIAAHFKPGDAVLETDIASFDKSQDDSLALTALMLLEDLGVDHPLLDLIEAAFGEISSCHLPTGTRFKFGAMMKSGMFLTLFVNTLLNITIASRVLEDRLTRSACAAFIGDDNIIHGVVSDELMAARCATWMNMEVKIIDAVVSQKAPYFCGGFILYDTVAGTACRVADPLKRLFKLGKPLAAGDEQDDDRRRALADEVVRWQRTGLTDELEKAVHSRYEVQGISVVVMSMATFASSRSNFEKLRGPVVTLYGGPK
# Chain of UniProt Q9UQM7 (whole entry, looked up): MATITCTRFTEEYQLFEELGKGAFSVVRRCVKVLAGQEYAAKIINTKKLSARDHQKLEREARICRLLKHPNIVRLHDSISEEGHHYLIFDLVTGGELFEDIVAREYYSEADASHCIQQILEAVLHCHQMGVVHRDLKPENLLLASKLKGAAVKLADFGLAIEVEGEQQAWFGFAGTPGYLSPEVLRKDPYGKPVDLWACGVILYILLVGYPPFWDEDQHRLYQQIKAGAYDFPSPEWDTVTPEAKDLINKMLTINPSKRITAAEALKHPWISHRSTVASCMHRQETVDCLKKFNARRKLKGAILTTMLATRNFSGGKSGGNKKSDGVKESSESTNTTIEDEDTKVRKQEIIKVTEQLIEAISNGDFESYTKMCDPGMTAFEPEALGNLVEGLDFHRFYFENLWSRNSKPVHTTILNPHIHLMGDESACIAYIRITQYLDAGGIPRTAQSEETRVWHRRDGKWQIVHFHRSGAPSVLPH

# Set 1
# Cell line: HEK-293T
# Observed: pseudovirus infection
# Method: FDA-approved drug library screen
# Organism: VSV pseudotyped with SARS-CoV-2 spike
# Concentration: 10 µM
# Time: 16 h
# Relative to: vehicle-treated
SMILES,GFP-positive cells
CCCc1nc(C(C)(C)O)c(C(=O)OCc2oc(=O)oc2C)n1Cc1ccc(-c2ccccc2-c2nnn[nH]2)cc1,86.2%
CC(=O)OCC[N+](C)(C)C,86.7%
COc1cc2nc(N3CCN(C(=O)C4CCCO4)CC3)nc(N)c2cc1OC (stereo not drawn),81.6%

# Set 2
# Target: Replicase polyprotein 1ab, main protease (rep, Severe acute respiratory syndrome coronavirus 2, UniProt P0DTD1)
# Observed: enzyme activity
# Mode: inhibitor
# Concentration: 20 µM
# Notes: primary screen
Compound,inhibition [%]
C=C(NNC(=S)NNC(=S)Nc1ccccc1Cl)c1ccccn1,31.8
O=C1C2CC=CCC2C(=O)N1SC(Cl)(Cl)Cl (stereo not drawn),99.8
COc1cc(/C=C(\C#N)C(N)=O)cc(CSc2nc3ccccc3s2)c1O,77.1

# Set 3
# Target: Replicase polyprotein 1ab, polymerase (rep, Severe acute respiratory syndrome coronavirus 2, UniProt P0DTD1)
# Observed: enzyme activity
# Mode: inhibitor
# Concentration: 20 µM
Compound,inhibition
C[N+](C)(CF)CCO,-3.79%
CCN(Cc1ccccc1)C(=O)Cn1c(=O)n(C)c2cnc(-c3ccccc3)nc21,1.19%
O=C(O)C[C@H]1CC[C@H](c2ccc(-c3ccc(Nc4ccc(C(F)(F)F)nc4)cn3)cc2)CC1,-3.71%
COc1cccc2c1c(O)c(C(=O)N(C)c1ccc(C(F)(F)F)cc1)c(=O)n2C,-5.65%
O=C(O)[C@@H]1C[C@@H](C2CCCCC2)CN1C(=O)CP(=O)(O)CCCCc1ccccc1,7.24%
CCOc1ccc(Cc2cc([C@]34OC[C@](CO)(O3)[C@@H](O)[C@H](O)[C@H]4O)ccc2Cl)cc1,2.76%
COc1ccc(Cl)cc1C(=O)NCCc1ccc(S(=O)(=O)NC(=O)NC2CCCCC2)cc1,-1.26%
Cc1ncc(Cl)cc1NCc1ccc(C(=O)N[C@@H](CC2CCCC2)C(=O)NC2CC2)s1,-0.8%
N[C@@H](CC(=O)O)C(=O)O,-0.5%
Cc1c(Cl)cccc1S(=O)(=O)Nc1nc(NCCc2ccccc2)nc2c1CN(Cc1ccccc1)CC2,14%
Cc1cc(OI)c(C(C)C)cc1-c1cc(C(C)C)c(OI)cc1C,-1.68%
CCC(=O)[C@@]1(C)[C@H](C)C[C@H]2[C@@H]3CCC4=CC(=O)C=C[C@]4(C)[C@H]3[C@@H](O)C[C@@]21C,-3.94%
N[C@@H](COP(=O)(O)O)C(=O)O,1.32%
C[C@H](CCC(=O)NCCS(=O)(=O)O)[C@H]1CC[C@H]2[C@@H]3[C@@H](O)C[C@@H]4C[C@H](O)CC[C@]4(C)[C@H]3CC[C@]12C,-2.72%
N[C@@H](Cn1oc(=O)[nH]c1=O)C(=O)O,-0.77%
Cc1ccc(N(CC2=NCCN2)c2cccc(O)c2)cc1,9.9%
NC(=O)c1cccnc1,2.46%
C[C@H](NC(=O)C(C)(C)Oc1ccc(C(F)(F)F)cn1)[C@@H](Cc1ccc(Cl)cc1)c1cccc(C#N)c1,-2.01%
O=C1[C@H](Cc2ccc(O)cc2)N2C(=O)CCN(C(=O)NCc3ccccc3)[C@H]2CN1Cc1cccc2ccccc12,4.23%
C[C@@H](CN1CC(=O)NC(=O)C1)N1CC(=O)NC(=O)C1,11.7%
COc1cccc(OC)c1-c1cc(C(=O)NC(CC(C)C)C(=O)O)nn1-c1ccnc2cc(Cl)ccc12 (stereo not drawn),10.2%
O=C1c2cccc(O)c2C(=O)c2c(O)cccc21,2.48%
Cc1ccc(NC(=O)c2ccc(CN3CCN(C)CC3)cc2)cc1Nc1nc(-c2cccnc2)cs1,-0.35%
CC[C@@H](C(N)=O)N1CCCC1=O,-0.71%
CC/C(=C(\c1ccc(O)cc1)c1ccc(OCCN(C)C)cc1)c1ccccc1,-0.04%

# Mixed results
# Spike glycoprotein: Spike glycoprotein (Severe acute respiratory syndrome coronavirus 2, UniProt P0DTC2)
Compound,target or system,test,test system,conditions,how to read,measurement,result
CC(C)=CCC/C(C)=C/CC/C(C)=C/CC/C(C)=C/CC1=C(C)C(=O)c2ccccc2C1=O,Spike glycoprotein,"binding, BLI",,,,kon,9.75 M⁻¹ s⁻¹
CCCCCCCCCCCCCCCC(=O)NS(=O)(=O)OCC,Bacillus anthracis,,Sterne 34F2,,,MIC,> 200 µg/mL
COc1cc2c(cc1OC)C1CC(=O)C(CC(C)C)CN1CC2 (stereo not drawn),mouse MPNST tumor cells,"high-content nuclear imaging, item: cell number",,"10 µM, 12 h, mean of 2 replicates","relative to: plate mean, higher = more cells",nuclei count,0.133 z-score and 0.881 z-score
COc1ccc2c(c1)[C@]13CCCC[C@@H]1[C@H](C2)N(C)CC3,SARS-CoV-2,,,"concentration not given, Paris laboratory",,viral replication inhibition,inactive
CCC(CC)COC(=O)[C@H](C)N[P@](=O)(OC[C@H]1O[C@@](C#N)(c2ccc3c(N)ncnn23)[C@H](O)[C@@H]1O)Oc1ccccc1,SARS-CoV-2,viral replication,"Huh-7-ACE2, USA-WA1/2020",24 h,,EC50,0.0026 µM
Cn1c(C(=O)Nc2ccc3c(c2)OCCO3)cc2c(=O)n3ccccc3nc21,Severe acute respiratory syndrome coronavirus 2,"viral replication, inhibitor, qPCR",Vero C1008,,,EC90,8.95 µM
O=C1NC(=S)N(c2ccccc2)C(=O)/C1=C/c1ccc(-c2ccc(C(=O)O)c(Cl)c2)o1,"Replicase polyprotein 1ab, nsp13 helicase (rep, Severe acute respiratory syndrome coronavirus 2, UniProt P0DTD1)","helicase ATPase activity, inhibitor, Kinase-Glo luminescence",,"60 min, together with: 2.5 µM ATP",,IC50,40 µM
Cc1nn(-c2ccc(Cl)cc2)c2c1C(c1ccc(I)cc1)C(C#N)=C(N)O2 (stereo not drawn),SARS-CoV-2,viral replication,Vero,1 µM,,viral reduction,0.556%
C1=C(c2ccc(CN3CCCCC3)cc2)N2CCN=C2c2ccccc21,SARS-CoV-2,viral replication,"Huh-7-ACE2, USA-WA1/2020",,,EC90,1.41 µM
Cc1ncsc1-c1ccc(CNC(=O)[C@@H]2C[C@@H](O)CN2C(=O)[C@@H](NC(=O)COCCOCCOCCNC(=O)C[C@@H]2N=C(c3ccc(Cl)cc3)c3c(sc(C)c3C)-n3c(C)nnc32)C(C)(C)C)cc1,SARS-CoV-2,,,"concentration not given, Paris laboratory",,viral replication inhibition,inactive
CCOC(=O)CC(SP(=S)(OC)OC)C(=O)OCC (stereo not drawn),mouse MPNST tumor cells,"high-content immunofluorescence imaging, item: nuclear SOX9",,"10 µM, 12 h, mean of 2 replicates","relative to: DMSO control, higher = more nuclear SOX9",nuclear SOX9 intensity,88.7 % of DMSO
CC(C)=CCc1cc2c(cc1O)O[C@H](c1ccc(O)cc1)CC2=O,Spike glycoprotein,binding,,,,Kd,56 µM
COc1ccn(C)c(=O)c1C#N,"DNA polymerase theta, ATPase domain (POLQ, Homo sapiens, UniProt O75417)","enzyme activity, inhibitor",,77 µM,relative to: untreated,remaining activity,102%
Cc1nn(-c2ccc(Cl)cc2)c2c1C(c1ccc(Br)cc1)C(C#N)=C(N)O2 (stereo not drawn),SARS-CoV-2,viral replication,Vero,10 µM,,viral reduction,3.95%
COc1ccc(-c2nc3ccccc3nc2-c2ccccc2)cc1,Severe acute respiratory syndrome coronavirus 2,"viral entry, inhibitor",,pseudovirus,,IC50,19.7 µM
C[C@H]1O[C@@H](O[C@H]2[C@@H](O)C[C@H](O[C@H]3[C@@H](O)C[C@H](O[C@H]4CC[C@@]5(C)[C@H](CC[C@@H]6[C@@H]5CC[C@]5(C)[C@@H](C7=CC(=O)OC7)CC[C@]65O)C4)O[C@@H]3C)O[C@@H]2C)C[C@H](O)[C@@H]1O,Plasmodium berghei,,"Huh-7, liver stage","10 µM, 24 h",relative to: control,parasite load,16.6%
C=CC(=O)Nc1cc(C)nc(N2CCOCC2)n1,"Polyprotein P1234, nsP2 protease domain (Chikungunya virus, UniProt Q5XXP4)","enzyme activity, inhibitor, FRET",,"90 min, 30 min preincubation",,IC50,33 ± 5 µM
CC(=O)c1c(O)c(C)c(O)c(Cc2c(O)c3c(c(C(=O)/C=C/c4ccccc4)c2O)OC(C)(C)C=C3)c1O,"Voltage-gated inwardly rectifying potassium channel KCNH2 (KCNH2, Homo sapiens, UniProt Q12809)","ion current, whole-cell patch clamp",HEK293 expressing hERG1,"4 µM, at -120 mV",,slow deactivation time constant,126 ± 19 ms
Cn1c(C(=O)Nc2ccc(Cl)cc2)cc2c(=O)n3ccccc3nc21,Severe acute respiratory syndrome coronavirus 2,"viral replication, inhibitor, qPCR",Vero C1008,,,EC90,1.74 µM
CN1C(=O)[C@]23CC4=CC=C[C@H](O)[C@H]4N2C(=O)[C@@]1(CO)SS3,"Calcium/calmodulin-dependent protein kinase type II subunit alpha (CAMK2A, Homo sapiens, UniProt Q9UQM7)","enzyme activity, inhibitor",,10 µM,,inhibition,-35%
